# Assay results collected from several papers.
# Protocols differ between the studies behind these lines. Values joined by “and” are separate records of one study, mostly repeats; a detail may differ. ± marks the error that the study gave.
# CYP2C19: Cytochrome P450 2C19 (CYP2C19, Homo sapiens, UniProt P33261)
# Chain of UniProt P33261 (whole entry, looked up): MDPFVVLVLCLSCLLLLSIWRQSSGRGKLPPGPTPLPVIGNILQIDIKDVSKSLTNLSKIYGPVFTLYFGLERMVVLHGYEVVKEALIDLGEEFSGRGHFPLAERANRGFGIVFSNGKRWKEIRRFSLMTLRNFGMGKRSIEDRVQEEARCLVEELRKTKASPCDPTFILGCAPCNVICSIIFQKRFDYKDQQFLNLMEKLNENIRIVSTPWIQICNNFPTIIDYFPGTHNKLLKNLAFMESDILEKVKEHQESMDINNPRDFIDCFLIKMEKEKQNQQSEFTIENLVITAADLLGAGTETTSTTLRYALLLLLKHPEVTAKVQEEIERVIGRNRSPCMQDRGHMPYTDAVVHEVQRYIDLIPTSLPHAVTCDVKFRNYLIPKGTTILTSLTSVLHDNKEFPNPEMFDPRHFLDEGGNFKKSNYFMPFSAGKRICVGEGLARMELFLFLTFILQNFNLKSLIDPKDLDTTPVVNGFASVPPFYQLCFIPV
# Chain of UniProt P05177 (whole entry, looked up): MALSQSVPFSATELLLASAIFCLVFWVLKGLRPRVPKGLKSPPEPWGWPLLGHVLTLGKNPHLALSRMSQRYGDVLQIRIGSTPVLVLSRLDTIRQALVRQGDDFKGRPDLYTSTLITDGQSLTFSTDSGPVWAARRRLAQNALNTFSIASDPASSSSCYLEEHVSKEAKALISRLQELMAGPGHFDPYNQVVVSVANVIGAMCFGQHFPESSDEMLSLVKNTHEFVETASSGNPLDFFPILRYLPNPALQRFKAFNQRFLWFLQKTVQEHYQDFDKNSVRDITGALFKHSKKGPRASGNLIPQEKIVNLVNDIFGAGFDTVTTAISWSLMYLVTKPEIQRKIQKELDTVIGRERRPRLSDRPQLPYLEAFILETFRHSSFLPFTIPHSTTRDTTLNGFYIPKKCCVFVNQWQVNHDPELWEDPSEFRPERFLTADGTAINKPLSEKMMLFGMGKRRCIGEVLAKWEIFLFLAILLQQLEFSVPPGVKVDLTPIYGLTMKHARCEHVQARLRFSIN
# Chain of UniProt P08684 (whole entry, looked up): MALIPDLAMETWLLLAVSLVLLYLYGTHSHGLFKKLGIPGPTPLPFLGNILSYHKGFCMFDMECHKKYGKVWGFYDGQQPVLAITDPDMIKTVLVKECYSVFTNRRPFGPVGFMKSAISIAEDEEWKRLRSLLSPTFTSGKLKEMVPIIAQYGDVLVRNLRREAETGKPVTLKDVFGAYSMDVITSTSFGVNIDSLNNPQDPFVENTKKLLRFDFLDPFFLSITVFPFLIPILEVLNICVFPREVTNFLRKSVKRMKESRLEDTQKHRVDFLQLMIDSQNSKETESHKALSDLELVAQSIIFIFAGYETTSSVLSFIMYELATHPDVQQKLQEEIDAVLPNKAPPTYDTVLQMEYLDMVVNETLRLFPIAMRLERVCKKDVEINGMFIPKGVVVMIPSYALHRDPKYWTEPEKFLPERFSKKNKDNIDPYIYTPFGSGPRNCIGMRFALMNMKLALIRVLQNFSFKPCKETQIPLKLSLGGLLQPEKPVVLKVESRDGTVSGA
Compound,target or system,assay,system,setting,how to read,endpoint,result
C[C@H](N)C(=O)O,Bacillus subtilis,,"NCIB3610, MOPS medium","1 mM, 1 mM equimolar amino acid mixture",,uptake half-time,16 h
CC[C@H](C)[C@H](N)C(=O)OC[C@H]1O[C@@](C#N)(c2ccc3c(N)ncnn23)[C@H](O)[C@@H]1O,human respiratory syncytial virus,"viral replication, viral protein ELISA","HEp-2, A2",5 days,reference: CC50 over EC50,selectivity index,> 68.5
O=C(CCCN1CCC(O)(c2ccc(Cl)cc2)CC1)c1ccc(F)cc1,,,"male Hartley guinea pig, anaesthetized","intravenous infusion, 0.1 mg/kg, 10 min infusion, post-infusion",,QTc interval,346 ± 0.3 ms
Cl.[2H]C([2H])([2H])CC(=O)c1cnc(NC(=O)C2CC2)cc1Nc1cccc(-c2ncn(C([2H])([2H])[2H])n2)c1OC,,,"human, fed, plasma","oral, 25 mg, single dose, liquid formulation",,CL/F,13.6 L/h
Cn1c(=O)c2c(ncn2C)n(C)c1=O,"Cytochrome P450 1A2 (CYP1A2, Homo sapiens, UniProt P05177)",,"human, plasma","oral, 200 mg, day 1, alone, geometric mean",,AUC(0-t),30600 ng·h/mL
Cc1noc(C)c1Cn1cc(N2C(=O)CN(Cc3cccc(O)c3)C2=O)cn1,human blood lymphocytes,,,"296.6 µg/mL, 3 h, with 2% S9",,aberrant cells with gaps,0.5%
COc1ccc2[nH]c([S+]([O-])Cc3ncc(C)c(OC)c3C)nc2c1 (stereo not drawn),CYP2C19,,"human, plasma","oral, 20 mg, Day 1, together with: single dose encorafenib and binimetinib",reference: Day -7,geometric LS mean ratio of AUClast,1.26
CCC(CC)COC(=O)[C@H](C)N[P@](=O)(OC[C@H]1O[C@@](C#N)(c2ccc3c(N)ncnn23)[C@H](O)[C@@H]1O)Oc1ccccc1,human respiratory syncytial virus,"viral replication, viral protein ELISA","HEp-2, A2",5 days,reference: CC50 over EC50,selectivity index,73.8
C[C@]12CC[C@@H]3c4ccc(O)cc4C[C@@H](CCCCCCCCC[S+]([O-])CCCC(F)(F)C(F)(F)F)[C@H]3[C@@H]1CC[C@@H]2O (stereo partly drawn),LCC2 tamoxifen-resistant,CCK-8,,200 nM,reference: untreated,viability,83.7% and 89.8% and 93.6%
NC(=O)CC[C@H](N)C(=O)O,Bacillus subtilis,,"168, S7 medium","1 mM, equimolar amino acid mixture",,uptake half-time,7.2 h
CCC(CC)C(=O)Oc1cccc(C(O)CCN)c1.O=CO (stereo not drawn),porcine liver esterase,,,"99 µM, 5 min",reference: time 0 min,compound remaining,93.4%
Cc1cc(C(=O)NC(C)(C)COc2cccc3c2C(N)=NS(=O)(=O)N3)cc(C)n1,human peripheral blood lymphocytes,"CBPI, concurrent micronucleus test",,"100 µg/mL, 4 h, together with: rat liver S9",reference: vehicle control,cytotoxicity,4%
O=C(CCCN1CC=C(n2c(=O)[nH]c3ccccc32)CC1)c1ccc(F)cc1,,,"male Hartley guinea pig, anaesthetized","intravenous infusion, 0.03 mg/kg, 10 min infusion, post-infusion",,QTc interval,315 ± 0.6 ms
CC(C)(C(=O)N1CCOc2c(C#N)cncc2C1)C(F)F,,refers to: Dyspepsia,human,"oral, 20 mg once daily, 14 days, multiple ascending dose",,subjects with adverse event,0%
CC(C)NCC(O)c1ccc(NS(C)(=O)=O)cc1 (racemic),,,"male Hartley guinea pig, anaesthetized","intravenous infusion, 3 mg/kg, 10 min infusion, post-infusion",,QTc interval,372 ± 0.3 ms
NC(=O)C[C@H](N)C(=O)O,Bacillus subtilis,,"168, S7 medium","1 mM, equimolar amino acid mixture",,uptake half-time,4.1 h
CC[C@H]1[C@@H](O)[C@@H]2[C@H](CC[C@]3(C)[C@@H]([C@H](C)CCNC(=O)NS(=O)(=O)c4ccc(C(C)(C)C)cc4)CC[C@@H]23)[C@@]2(C)CC[C@@H](O)C[C@@H]12,"Cytochrome P450 3A4 (CYP3A4, Homo sapiens, UniProt P08684)",,"human, plasma","dose not given, geometric mean, together with: fluconazole",,AUC(0-inf),1540 ng·h/mL
N[C@@H](CCC(=O)O)C(=O)O,Bacillus subtilis,amino acid uptake,"168, S7 medium",together with: equimolar amino acid mixture 1 mM,,half-time of uptake,9 h
COc1cc2ncnc(Nc3ccc(Oc4ccccc4)c(C)c3C)c2cc1OC.Cl,MeWo (NF1 mutant),resazurin,,"0.1 µM, 72 h, unit not given, together with: trametinib",reference: DMSO,viability,0.959
COc1ccc(-c2nc(NS(=O)(=O)c3ccccc3)nc(N)c2-c2nc3ccccc3s2)cc1,BGM,cytotoxicity,,72 h,,maximum non-toxic concentration,100 µg/mL
O=C1Cc2cc(CCN3CCN(c4nsc5ccccc45)CC3)c(Cl)cc2N1,,,"male Hartley guinea pig, anaesthetized","intravenous, 0.1 mg/kg, baseline before infusion",,QTc interval,336 ± 0.4 ms
Cc1cc(Nc2ccc(S(F)(F)(F)(F)F)cc2)n2nc(C(C)(F)F)nc2n1,Plasmodium vivax,,human Plasmodium vivax malaria patients,"oral, 400 mg",,patients with blurred vision,0%
COc1ccc2nc([S+]([O-])Cc3ncc(CO)c(OC)c3C)[nH]c2c1 (stereo not drawn),CYP2C19,CYP2C19 probe metabolite,"human, plasma","oral, 20 mg omeprazole, probe cocktail",,Tmax,≤ 3 h
CCCC(CCC)C(=O)Oc1cccc(C(O)CCN)c1.O=CO (stereo not drawn),porcine liver esterase,,,"99 µM, 5 min",reference: time 0 min,compound remaining,99.8%
N[C@@H](CS)C(=O)O,Bacillus subtilis,,"NCIB3610, MOPS medium","1 mM, 1 mM equimolar amino acid mixture",,uptake half-time,17.3 h
O=C(Nc1nc2cccc(-c3ccc(CN4CCS(=O)(=O)CC4)cc3)n2n1)C1CC1,,,rheumatoid arthritis patients,"oral, 100 mg twice daily, 4 weeks, regardless of relatedness",,patients with joint swelling,8.3%
C[C@@H](O)[C@H](N)C(=O)O,Bacillus subtilis,,"NCIB3610, MOPS medium","1 mM, 1 mM equimolar amino acid mixture",,uptake half-time,28.3 h
Cc1ccc(S(=O)(=O)Nc2nc(N)c(-c3nc4ccccc4s3)c(-c3ccc(F)cc3)n2)cc1,BGM,cytotoxicity,,72 h,,maximum non-toxic concentration,100 µg/mL
N[C@@H](CC(=O)O)C(=O)O,Bacillus subtilis,,"168, S7 medium","1 mM, equimolar amino acid mixture",,uptake half-time,10.6 h
COc1cccc2c1C(=O)c1c(O)c3c(c(O)c1C2=O)C[C@@](O)(C(=O)CO)C[C@@H]3O[C@H]1C[C@H](N)[C@H](O)[C@H](C)O1,BNL mouse liver cells,SRB,,"0.01 µM, 10% fetal bovine serum",,viability,99.3%

# A few entries again:
Compound,target or system,assay,system,setting,how to read,endpoint,result
COc1ccc2[nH]c([S+]([O-])Cc3ncc(C)c(OC)c3C)nc2c1 (stereo not drawn),CYP2C19,,"human, plasma","oral, 20 mg, Day 1, together with: single dose encorafenib and binimetinib",reference: Day -7,geometric LS mean ratio of AUClast,1.26
CCC(CC)COC(=O)[C@H](C)N[P@](=O)(OC[C@H]1O[C@@](C#N)(c2ccc3c(N)ncnn23)[C@H](O)[C@@H]1O)Oc1ccccc1,human respiratory syncytial virus,"viral replication, viral protein ELISA","HEp-2, A2",5 days,reference: CC50 over EC50,selectivity index,73.8
C[C@]12CC[C@@H]3c4ccc(O)cc4C[C@@H](CCCCCCCCC[S+]([O-])CCCC(F)(F)C(F)(F)F)[C@H]3[C@@H]1CC[C@@H]2O (stereo partly drawn),LCC2 tamoxifen-resistant,CCK-8,,200 nM,reference: untreated,viability,83.7% and 89.8% and 93.6%
NC(=O)CC[C@H](N)C(=O)O,Bacillus subtilis,,"168, S7 medium","1 mM, equimolar amino acid mixture",,uptake half-time,7.2 h
CCC(CC)C(=O)Oc1cccc(C(O)CCN)c1.O=CO (stereo not drawn),porcine liver esterase,,,"99 µM, 5 min",reference: time 0 min,compound remaining,93.4%
